{"data": "Results pooled from the literature", "note": "Every numbered part comes from another study and shows a few of its results, in no order. Substitutions count along the parent as printed."}
{"data": "Block 1", "target": "Histone acetyltransferase KAT6A, both winged helices, GST fusion (KAT6A, Homo sapiens, UniProt Q92794, residues 1-181)", "technique": "protein binding microarray", "molecule type": "double-stranded DNA, one strand shown", "sample": "in vitro", "concentration": "not given", "setting": "8-mer, flanks averaged, mean of 2 arrays, mostly near background", "reference": "not given", "reading": "higher = stronger binding", "Residues (chain)": "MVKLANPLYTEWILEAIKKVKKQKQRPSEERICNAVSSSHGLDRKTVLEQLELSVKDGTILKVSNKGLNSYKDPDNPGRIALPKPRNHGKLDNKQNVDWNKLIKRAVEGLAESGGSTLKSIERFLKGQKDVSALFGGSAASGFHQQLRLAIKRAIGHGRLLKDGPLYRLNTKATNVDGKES"}
{"Sequence": "ATTAGCAG", "E-score": -0.134}
{"Sequence": "GTGATAAC", "E-score": -0.0152}
{"Sequence": "AGACACCC", "E-score": -0.189}
{"Sequence": "CCTACGCC", "E-score": 0.00255}
{"Sequence": "ACATCTTA", "E-score": -0.216}
{"Sequence": "GCGGCCGC", "E-score": 0.42}
{"Sequence": "ACTCTTCC", "E-score": -0.0123}
{"Sequence": "ATGAGGGG", "E-score": -0.204}
{"data": "Block 2", "target": "vanadate, free oxyanion", "technique": "microfluidic competitive inhibition", "sample": "in vitro, cell-free expressed", "concentration": "not given", "setting": "derived from inhibition constants, unchanged parent 676 nM", "reading": "lower = stronger binding", "starting sequence": "PafA, mature enzyme, eGFP fusion (Elizabethkingia meningoseptica, UniProt Q9KJX5); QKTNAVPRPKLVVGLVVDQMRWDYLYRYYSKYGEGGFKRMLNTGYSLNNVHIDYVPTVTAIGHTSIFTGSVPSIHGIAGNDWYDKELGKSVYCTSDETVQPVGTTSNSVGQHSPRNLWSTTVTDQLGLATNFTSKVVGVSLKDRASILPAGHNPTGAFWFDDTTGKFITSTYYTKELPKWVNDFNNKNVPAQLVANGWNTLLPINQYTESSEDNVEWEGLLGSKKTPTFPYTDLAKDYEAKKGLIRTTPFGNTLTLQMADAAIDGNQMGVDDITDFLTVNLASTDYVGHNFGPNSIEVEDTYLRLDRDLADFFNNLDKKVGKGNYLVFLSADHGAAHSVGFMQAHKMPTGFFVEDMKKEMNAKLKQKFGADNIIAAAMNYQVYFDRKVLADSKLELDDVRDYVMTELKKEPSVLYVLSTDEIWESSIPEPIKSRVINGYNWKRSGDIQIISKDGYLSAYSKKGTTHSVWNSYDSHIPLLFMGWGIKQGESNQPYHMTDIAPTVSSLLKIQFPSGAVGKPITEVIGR"}
{"Substitution": "I524V", "oxyanion analog dissociation constant [µM]": 0.728}
{"Substitution": "N42V", "oxyanion analog dissociation constant [µM]": 0.675}
{"Substitution": "T232G", "oxyanion analog dissociation constant [µM]": 0.658}
{"Substitution": "G33V", "oxyanion analog dissociation constant [µM]": 0.594}
{"Substitution": "N153V", "oxyanion analog dissociation constant [µM]": 0.761}
{"Substitution": "R21G", "oxyanion analog dissociation constant [µM]": 0.849}
{"data": "Block 3", "target": "CCNE1, cyclin fold, Cln2 fusion (human)", "technique": "yeast growth competition, sequencing", "sample": "yeast", "setting": "strong parent motif", "reference": "not given", "reading": "higher = stronger binding", "starting sequence": "viral docking peptide; YKVKRRLVFGADD"}
{"Substitution": "YKVKRRLVFRADD [G10R]", "normalised enrichment score": 4.11}
{"Substitution": "YKVKRRLVFGAPD [D12P]", "normalised enrichment score": 4.99}
{"Substitution": "YKVKRRLVFGWDD [A11W]", "normalised enrichment score": 5.96}
{"Substitution": "YGVKRRLVFGADD [K2G]", "normalised enrichment score": 6.65}
{"Substitution": "YKVKRRLVFGASD [D12S]", "normalised enrichment score": 5.35}
{"Substitution": "YKVKRQLVFGADD [R6Q]", "normalised enrichment score": 5.1}
{"Substitution": "YKDKRRLVFGADD [V3D]", "normalised enrichment score": 0.372}
{"Substitution": "YKVKRRLVTGADD [F9T]", "normalised enrichment score": 0.617}
{"Substitution": "YKVKRRLVEGADD [F9E]", "normalised enrichment score": 0.138}
{"Substitution": "YKVIRRLVFGADD [K4I]", "normalised enrichment score": 3.05}
{"Substitution": "YKVKGRLVFGADD [R5G]", "normalised enrichment score": 0.372}
{"Substitution": "YKSKRRLVFGADD [V3S]", "normalised enrichment score": 1.2}
{"Substitution": "YKVKRRLFFGADD [V8F]", "normalised enrichment score": 7.29}
{"Substitution": "YKVKRRLVFVADD [G10V]", "normalised enrichment score": 5.05}
{"Substitution": "YKVKARAVFGADD [R5A L7A]", "normalised enrichment score": 0.0808}
{"data": "Block 4", "target": "OGT, full length, His-tagged (human)", "technique": "phage display, sequencing", "sample": "in vitro", "concentration": "1 µg OGT", "setting": "single substitutions, 15-mer displayed peptide, unchanged parent 16.7", "reference": "input library", "reading": "higher = stronger binding", "starting sequence": "peptide; NSEYMPQYQIIFAHQ"}
{"Substitution": "NSEYMPQYSIIFAHQ [Q9S]", "fold enrichment [fold]": 3.76}
{"Substitution": "NSEYMPQYQIIWAHQ [F12W]", "fold enrichment [fold]": 20}
{"Substitution": "NSEYMPQYQIIFRHQ [A13R]", "fold enrichment [fold]": 29.2}
{"Substitution": "NSEYMPQKQIIFAHQ [Y8K]", "fold enrichment [fold]": 0.56}
{"Substitution": "NSEYMPQYQIIFAHY [Q15Y]", "fold enrichment [fold]": 11.7}
{"Substitution": "WSEYMPQYQIIFAHQ [N1W]", "fold enrichment [fold]": 14.3}
{"Substitution": "NSEYMPQYQIGFAHQ [I11G]", "fold enrichment [fold]": 2.47}
{"Substitution": "NSEYMPQYQIIFAIQ [H14I]", "fold enrichment [fold]": 11.3}
{"note": "A few entries again (block 2):"}
{"Substitution": "N42V", "oxyanion analog dissociation constant [µM]": 0.675}
{"Substitution": "I524V", "oxyanion analog dissociation constant [µM]": 0.728}
{"Substitution": "G33V", "oxyanion analog dissociation constant [µM]": 0.594}
{"Substitution": "R21G", "oxyanion analog dissociation constant [µM]": 0.849}
